Results of several laboratories.
Each line is one published result; not all experiments were run side by side.
Organism: Klebsiella pneumoniae

CN1C(=O)Cc2ccc(F)c(CNCCCC3CN(c4ccc5c(n4)NC(=O)CO5)C(=O)O3)c21 (stereo not shown)  MIC (ATCC 13883): 0.5 µg/mL
CC[C@H](C)[C@H](NC(=O)[C@H](Cc1c[nH]c2ccccc12)NC(=O)[C@@H](NC(=O)[C@H](Cc1c[nH]c2ccccc12)NC(=O)[C@@H]1CCCN1C(=O)[C@@H](NC(=O)[C@H](C)N)[C@@H](C)CC)[C@@H](C)CC)C(=O)N[C@@H](Cc1c[nH]c2ccccc12)C(=O)N[C@@H](CCCNC(=N)N)C(=O)N[C@@H](CC(C)C)C(=O)N[C@@H](CC(C)C)C(=O)N[C@@H](CCCNC(=N)N)C(=O)N[C@@H](CCCCN)C(=O)NCC(N)=O  MIC (broth microdilution; ATCC 700603; 18 h, 37 °C): > 15 µM
CC[C@H](C)[C@H](NC(=O)CNC(=O)[C@H](CC(=O)O)NC(=O)[C@H](CCCNC(=N)N)NC(=O)[C@@H](NC(=O)[C@H](CC(N)=O)NC(=O)[C@H](CCCNC(=N)N)NC(=O)CNC(=O)[C@@H](NC(=O)[C@H](CCCCN)NC(=O)[C@H](CCC(=O)O)NC(=O)[C@@H](NC(=O)[C@H](CCCCN)NC(=O)[C@H](CCCCN)NC(=O)[C@H](Cc1ccccc1)NC(=O)[C@@H](NC(=O)[C@H](CCCCN)NC(=O)[C@H](Cc1c[nH]c2ccccc12)NC(=O)[C@@H](N)CCCNC(=N)N)[C@@H](C)CC)[C@@H](C)CC)C(C)C)C(C)C)C(=O)N[C@H](C(=O)N[C@@H](CCCCN)C(=O)N[C@@H](C)C(=O)NCC(=O)N1CCC[C@H]1C(=O)N[C@@H](C)C(=O)N[C@H](C(=O)N[C@@H](C)C(=O)N[C@H](C(=O)N[C@H](C(=O)NCC(=O)N[C@@H](CCC(N)=O)C(=O)N[C@@H](C)C(=O)N[C@@H](C)C(=O)N[C@H](C(=O)N[C@H](C(=O)N[C@H](C(=O)N[C@@H](CCCCN)C(N)=O)C(C)C)C(C)C)[C@@H](C)O)C(C)C)C(C)C)C(C)C)[C@@H](C)CC  MIC (NCCP 15866 carbapenem-resistant): 2 µM
CCCCCCCC(=O)N[C@@H](CCCCN)C(=O)N[C@@H](CCCCN)C(=O)N[C@@H](C)C(=O)N[C@@H](CC(C)C)C(=O)N[C@@H](CCCCN)C(=O)N[C@@H](CC(C)C)C(=O)N[C@@H](C)C(=O)N[C@@H](CCCCN)C(=O)N[C@@H](CCCCN)C(=O)N1CCC[C@H]1C(=O)N[C@@H](CC(C)C)C(=O)N[C@@H](CCCCN)C(=O)N[C@@H](CC(C)C)C(=O)N[C@@H](CC(C)C)C(=O)N[C@@H](CCCCN)C(N)=O  MIC (broth microdilution; ATCC 700603; 18 h, 37 °C, compound alone): > 80 µM
COCCNc1nc(Cl)c2c(c1O)C(=O)C1=C(O)[C@]3(O)C(=O)C(C(N)=O)=C(O)[C@@H](N(C)C)[C@@H]3C[C@@H]1C2.Cl.Cl.Cl  MIC (tet(A)-carrying): > 32 µg/mL
C[C@@H](O)[C@H]1C(=O)N2C(C(=O)O)=C(S[C@@H]3CN[C@H](C(=O)N(C)C)C3)[C@H](C)[C@H]12  MIC (1188718, multidrug-resistant): 0.03 µg/mL
COc1ccc2ccc(O)c(/C=N/[C@H]3CCCC[C@H]3/N=C/c3ccc(OCCN4CCCCC4)cc3O)c2c1  MIC (bacterial growth, broth microdilution; carbapenem-resistant clinical isolate): > 40 µM
CN(C)[C@@H]1C(O)=C(C(N)=O)C(=O)[C@@]2(O)C(O)=C3C(=O)c4c(O)cncc4C[C@H]3C[C@@H]12.Cl.Cl  MIC (tet(A)-carrying): > 32 µg/mL
CC(=O)N[C@@H](CCCCN)C(=O)N[C@@H](CCCCN)C(=O)N[C@@H](C)C(=O)N[C@@H](CC(C)C)C(=O)N[C@@H](CCCCN)C(=O)N[C@@H](CC(C)C)C(=O)N[C@@H](CC(C)C)C(=O)N[C@@H](CCCCN)C(=O)N[C@@H](CCCCN)C(=O)N1CCC[C@H]1C(=O)N[C@@H](CC(C)C)C(=O)N[C@@H](CCCCN)C(=O)N[C@@H](CC(C)C)C(=O)N[C@@H](CC(C)C)C(=O)N[C@@H](CCCCN)C(N)=O  MIC (broth microdilution; ATCC 700603; 18 h, 37 °C, compound alone): > 80 µM
Cc1ncc(O)c2c1C[C@H]1C[C@H]3[C@H](N(C)C)C(O)=C(C(N)=O)C(=O)[C@@]3(O)C(O)=C1C2=O.Cl.Cl  MIC (tet(A)-carrying): > 32 µg/mL
CC[C@H](C)[C@H](N)C(=O)N[C@@H](CCCNC(=N)N)C(=O)N[C@H](C(=O)N[C@@H](Cc1c[nH]c2ccccc12)C(=O)N[C@@H](Cc1ccccc1)C(=O)N[C@H](C(=O)N[C@@H](CCCCN)C(=O)N[C@H](C(=O)N[C@@H](CCCNC(=N)N)C(=O)N[C@@H](CCCCN)C(=O)N[C@@H](Cc1c[nH]c2ccccc12)C(=O)N[C@@H](CCCCN)C(=O)N[C@@H](C)C(=O)N[C@H](C(=O)N[C@@H](Cc1ccc(O)cc1)C(=O)N[C@@H](Cc1c[nH]cn1)C(=O)N[C@H](C(N)=O)[C@@H](C)O)[C@@H](C)CC)C(C)C)[C@@H](C)CC)C(C)C  MIC (broth dilution; ATCC 700603): 50 µM
CC[C@H](C)[C@H](NC(=O)[C@H](C)NC(=O)[C@H](CCCNC(=N)N)NC(=O)[C@H](CCCNC(=N)N)NC(=O)[C@H](CCCNC(=N)N)NC(=O)[C@H](CCCNC(=N)N)NC(=O)[C@H](CCCNC(=N)N)NC(=O)[C@@H](N)CCCNC(=N)N)C(=O)N[C@@H](CO)C(=O)NCC(=O)N[C@@H](CO)C(=O)N[C@@H](CC(C)C)C(=O)N[C@H](C(=O)N[C@H](C(=O)N[C@@H](CC(C)C)C(=O)N[C@@H](Cc1ccccc1)C(=O)NCC(=O)N[C@@H](Cc1ccc(O)cc1)C(N)=O)[C@@H](C)O)C(C)C  MIC (broth microdilution; ATCC 13883; highest value reported): 4 µM
CCCCCCCCCC(=O)N[C@@H](Cc1c[nH]c2ccccc12)C(=O)N[C@H](CC(N)=O)C(=O)N[C@@H](CC(=O)O)C(=O)N[C@@H]1C(=O)NCC(=O)N[C@@H](CCCN)C(=O)N[C@@H](CC(=O)O)C(=O)N[C@H](C)C(=O)N[C@@H](CC(=O)O)C(=O)NCC(=O)N[C@H](CO)C(=O)N[C@@H]([C@H](C)CC(=O)O)C(=O)N[C@@H](CC(=O)c2ccccc2N)C(=O)O[C@@H]1C  MIC (broth dilution; ATCC 27736): inactive
CC(C)C[C@H](NC(=O)[C@H](C)NC(=O)[C@@H](NC(=O)[C@H](CCCNC(=N)N)NC(=O)[C@H](CC(C)C)NC(=O)[C@H](Cc1c[nH]c2ccccc12)NC(=O)[C@@H]1CCCN1C(=O)[C@@H](N)CCCCN)C(C)C)C(=O)N[C@@H](CS)C(=O)N1CCC[C@H]1C(=O)NCC(=O)O  MIC (broth microdilution; B): 64 µM
O=C(N[C@H](CO)[C@H](O)c1ccc([N+](=O)[O-])cc1)C(Cl)Cl  MIC (broth microdilution; ATCC 43816 acrAB overexpressor): 4 µg/mL
CC[C@H](C)[C@H](NC(=O)[C@H](C)NC(=O)[C@H](CCCCN)NC(=O)[C@H](CCCCN)NC(=O)[C@H](CCCCN)NC(=O)[C@H](CCCCN)NC(=O)[C@H](CCCCN)NC(=O)[C@@H](N)CCCCN)C(=O)N[C@@H](CO)C(=O)NCC(=O)N[C@@H](CO)C(=O)N[C@@H](CC(C)C)C(=O)N[C@H](C(=O)N[C@H](C(=O)N[C@@H](CC(C)C)C(=O)N[C@@H](Cc1ccccc1)C(=O)NCC(=O)N[C@@H](Cc1ccc(O)cc1)C(N)=O)[C@@H](C)O)C(C)C  MIC (broth microdilution; ATCC 13883; highest value reported): 64 µM
C[C@@H](O)[C@H]1C(=O)N2C(C(=O)O)=C(S[C@@H]3CN[C@H](C(=O)N(C)C)C3)[C@H](C)[C@H]12  MIC (broth microdilution; ATCC 43816 acrAB overexpressor; together with: colistin 0.5 mg/L): < 0.5 µg/mL
CC(=O)N[C@@H](CCCCN)C(=O)N[C@@H](CCCCN)C(=O)N[C@@H](CC(C)C)C(=O)N[C@@H](C)C(=O)N[C@@H](CCCCN)C(=O)N[C@@H](CC(C)C)C(=O)N[C@@H](CC(C)C)C(=O)N[C@@H](CCCCN)C(=O)N[C@@H](CCCCN)C(=O)N1CCC[C@H]1C(=O)N[C@@H](CC(C)C)C(=O)N[C@@H](CCCCN)C(=O)N[C@@H](CC(C)C)C(=O)N[C@@H](CC(C)C)C(=O)N[C@@H](CCCCN)C(N)=O  MIC (broth microdilution; ATCC 700603; 18 h, 37 °C, compound alone): > 80 µM
Cc1cc(NS(=O)(=O)c2ccc(N)cc2)no1  MIC (broth microdilution; ATCC 43816 acrAB overexpressor): 128 µg/mL
NCC[C@H](O)C(=O)N[C@@H]1C[C@H](N)[C@@H](O[C@H]2O[C@H](CN)[C@@H](O)[C@H](O)[C@H]2O)[C@H](O)[C@H]1O[C@H]1O[C@H](CO)[C@@H](O)[C@H](N)[C@H]1O  MIC (broth microdilution; KPC-25 producing): > 128 µg/mL
CC[C@H](C)[C@H](NC(=O)CN)C(=O)NCC(=O)N[C@@H](C)C(=O)N[C@H](C(=O)N[C@@H](CC(C)C)C(=O)N[C@@H](CCCCN)C(=O)N[C@H](C(=O)N[C@@H](CC(C)C)C(=O)N[C@H](C(=O)N[C@H](C(=O)NCC(=O)N[C@@H](CC(C)C)C(=O)N1CCC[C@H]1C(=O)N[C@@H](C)C(=O)N[C@@H](CC(C)C)C(=O)N[C@H](C(=O)N[C@@H](CO)C(=O)N[C@@H](Cc1c[nH]c2ccccc12)C(=O)N[C@H](C(=O)N[C@@H](CCCCN)C(=O)N[C@@H](CCCNC(=N)N)C(=O)N[C@@H](CCCCN)C(=O)N[C@@H](CCCNC(=N)N)C(=O)N[C@@H](CCC(N)=O)C(=O)N[C@@H](CCC(N)=O)C(N)=O)[C@@H](C)CC)[C@@H](C)CC)[C@@H](C)O)[C@@H](C)O)C(C)C)C(C)C  MIC (NCCP 15782 carbapenem-resistant): 16 µM
CC[C@H](C)[C@H](N)C(=O)N[C@@H](CC(C)C)C(=O)NCC(=O)N[C@H](CCCCN)C(=O)N[C@H](C(=O)N[C@@H](Cc1c[nH]c2ccccc12)C(=O)N[C@@H](CCCCN)C(=O)NCC(=O)N[C@H](C(=O)N[C@@H](CCCCN)C(=O)N[C@@H](CC(=O)O)C(=O)N[C@H](C(=O)N[C@@H](CC(C)C)C(N)=O)[C@@H](C)CC)[C@@H](C)CC)[C@@H](C)CC  MIC (broth microdilution; ATCC 27736, Mueller-Hinton broth; 16 h, 37 °C): 100 µM
CC(=O)N[C@@H](CCCCN)C(=O)N[C@@H](CCCCN)C(=O)N[C@@H](CC(C)C)C(=O)N[C@@H](CC(C)C)C(=O)N[C@@H](CCCCN)C(=O)N[C@@H](CC(C)C)C(=O)N[C@@H](CC(C)C)C(=O)N[C@@H](CCCCN)C(=O)N[C@@H](CCCCN)C(=O)N1CCC[C@H]1C(=O)N[C@@H](CC(C)C)C(=O)N[C@@H](CCCCN)C(=O)N[C@@H](C)C(=O)N[C@@H](CC(C)C)C(=O)N[C@@H](CCCCN)C(N)=O  MIC (broth microdilution; ATCC 700603; 18 h, 37 °C, compound alone): > 80 µM
CN(C)c1cc(NC(=O)CNC(C)(C)C)c(O)c2c1C[C@H]1C[C@H]3[C@H](N(C)C)C(O)=C(C(N)=O)C(=O)[C@@]3(O)C(O)=C1C2=O  MIC (broth microdilution; parental, KPC-33): 2 µg/mL
CC1=C[C@@H]2CN(C(=O)N2OS(=O)(=O)O)[C@@H]1C(N)=O  MIC (ATCC 1706, ESBL and NDM; compound alone): > 128 µg/mL

Repeated from above:
C[C@@H](O)[C@H]1C(=O)N2C(C(=O)O)=C(S[C@@H]3CN[C@H](C(=O)N(C)C)C3)[C@H](C)[C@H]12  MIC (1188718, multidrug-resistant): 0.03 µg/mL
COc1ccc2ccc(O)c(/C=N/[C@H]3CCCC[C@H]3/N=C/c3ccc(OCCN4CCCCC4)cc3O)c2c1  MIC (bacterial growth, broth microdilution; carbapenem-resistant clinical isolate): > 40 µM
